Assay results gathered from unrelated publications.
A part holds a random share of what one study measured.

Series 1
Target: Interferon regulatory factor 5, full length, phosphomimetic (IRF5, Homo sapiens, UniProt Q13568-2, residues 1-514, S451D/S453D/S456D/S462D)
Method: protein-binding microarray
Molecule type: double-stranded DNA, one strand shown
Medium: in vitro
Concentration: 940 nM top
Notes: 60-bp whole probe
Together with: salmon DNA 0.4 mg/ml
Baseline: random background probes
Reading: higher = stronger binding
Shared flanks, not repeated: GCCTAGCAC … GTCTTGATTCGCTTGACGCTGCTG
Under “fitted relative affinity”, `TCAAAAATCTCAATGGGACTGTGCTAG` is recorded as -0.0966 z-score.
Under “fitted relative affinity”, `TTAGGGATCGGTTTCGGTTAGTGCTAG` is recorded as 8.53 z-score.
Under “fitted relative affinity”, `TTATATATCGGGACTGGATTAGTGCTA` is recorded as 0.271 z-score.
For `CTTTTTTTTTTTTTCTGATCGTGCTAG`, “fitted relative affinity” read 0.878 z-score.
Under “fitted relative affinity”, `TTAGAACAGAGACTGGATTAGTGCTAG` is recorded as -0.317 z-score.
`TTGGGTTTCGGACTGGGTTAGTGCTAG` — result for “fitted relative affinity”: 6.08 z-score.
`GACGGACGGCTTTTCCTGACGTGCTAG` — result for “fitted relative affinity”: -0.715 z-score.
`TTTGGACTGGGGTATCGGTTAGTGCTA`: “fitted relative affinity” 2.84 z-score.
`GACGATTTCAGTATCGAGATGTGCTAG`: “fitted relative affinity” 2.16 z-score.
`TTAGGTTTCCTTTCCCTATAGTGCTAG` — result for “fitted relative affinity”: 2.55 z-score.
For `TGAGGTATCGACTATCGGTTAGTGCTA`, “fitted relative affinity” read 3.64 z-score.

Series 2
Target: Ras GTPase-activating protein-binding protein 1, full length (G3BP1, Homo sapiens, UniProt Q13283)
Chain of UniProt Q13283 (whole entry, looked up): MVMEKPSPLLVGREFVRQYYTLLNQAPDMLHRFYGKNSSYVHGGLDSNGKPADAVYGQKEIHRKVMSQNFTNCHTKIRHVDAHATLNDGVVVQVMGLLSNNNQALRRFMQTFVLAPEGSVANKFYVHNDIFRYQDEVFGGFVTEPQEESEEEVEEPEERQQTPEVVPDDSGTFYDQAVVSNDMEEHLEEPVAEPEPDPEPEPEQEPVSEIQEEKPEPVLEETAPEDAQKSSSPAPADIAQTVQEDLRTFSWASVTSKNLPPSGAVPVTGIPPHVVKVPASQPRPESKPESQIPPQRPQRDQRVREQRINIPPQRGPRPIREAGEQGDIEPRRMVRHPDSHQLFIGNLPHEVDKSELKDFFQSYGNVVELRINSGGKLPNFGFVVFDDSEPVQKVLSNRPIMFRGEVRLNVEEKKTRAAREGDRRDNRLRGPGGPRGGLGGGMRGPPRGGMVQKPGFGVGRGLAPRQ
Method: RNA Bind-n-Seq
Molecule type: RNA
Medium: in vitro
Concentration: 200 nM
Notes: whole 134-nt RNA, ends assumed
Together with: 150 mM LiCl
Baseline: input library
Reading: higher = stronger binding
Each molecule: 7-deaza-guanosine replaces G
`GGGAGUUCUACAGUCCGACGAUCCCUGUGCUACACAUCGUAUGUACCGAAUCGGGUUUUUUUGGUUUUUUUGGGUUUUUUUGGAAAGUAUUAUGUUACGCCGUUCGGAUCUGCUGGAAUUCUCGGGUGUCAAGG` has a log2 enrichment of 0.772.
With `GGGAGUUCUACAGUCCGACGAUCGGACACAGCUUGGGCUAUGGCUUUGUGAACUACGUGACCGCGAAGGAUGCAGAGAGAGCGAUCAACACGCUGAACGGCUUGAGGCUCCAGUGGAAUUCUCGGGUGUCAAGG` the log2 enrichment was -1.75.
For `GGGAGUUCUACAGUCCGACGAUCUAACUUUAGAGGAGGAUUUGAUGGAUAUGGCAGUGGACGUGGAUUUGGGGAUGGCUAUAAUGGGUAUGGAGGAGGACCUGGAGGUGGCAAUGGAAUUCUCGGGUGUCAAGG`, the log2 enrichment was 0.0668.
`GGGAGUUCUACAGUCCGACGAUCGCAGGAAGUAAAAACAAAUGGAAAUGCUUCGGAUAGUGGCAGGGGUGGGGGUUGCUUAGGAAAGGGUGGGAUGGGAGUGGGUAAAGAGUUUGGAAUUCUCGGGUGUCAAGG` gave a log2 enrichment of -0.339.
The log2 enrichment of `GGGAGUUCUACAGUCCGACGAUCAAGUCGCGUGUCUAGGUGAGUCGCGGUGGGUCCUCGCUUGCAGUUCAGCGACCACGGUGGGUACCGUUUUUGCGAGGAUUGUUUGUCCCCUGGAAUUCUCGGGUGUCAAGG` is reported as 0.356.

Series 3
Target: RING finger protein unkempt homolog, zinc fingers 1-6, SBP tag (UNK, Homo sapiens, UniProt Q9C0B0, residues 30-357)
Chain of UniProt Q9C0B0 (30-357, looked up): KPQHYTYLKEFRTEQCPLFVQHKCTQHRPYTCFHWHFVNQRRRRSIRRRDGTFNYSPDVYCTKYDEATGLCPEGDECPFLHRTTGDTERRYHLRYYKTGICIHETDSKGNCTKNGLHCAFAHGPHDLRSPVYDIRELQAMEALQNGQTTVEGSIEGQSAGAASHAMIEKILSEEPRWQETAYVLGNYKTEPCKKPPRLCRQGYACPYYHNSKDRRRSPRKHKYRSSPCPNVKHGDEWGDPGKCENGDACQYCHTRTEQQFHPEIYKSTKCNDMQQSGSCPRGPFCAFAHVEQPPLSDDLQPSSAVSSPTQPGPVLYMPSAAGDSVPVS
Method: RNA Bind-n-Seq
Molecule type: RNA
Medium: in vitro
Concentration: 100 nM
Notes: RNA with constant flanks, vertebrate orthologous sites, ends assumed
Baseline: input RNA pool
Reading: higher = stronger binding
With `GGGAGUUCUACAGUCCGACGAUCUUGGGACCAGCUCUCCCAGUAGGAAUAGUAGUAAAAAAAAUAAACAAAAUGACACUUGUUUAGAAAAAACAGAAGUUAAAUCAUGUAAAGUAAAUGCUGUCAGUGUUCCAGGCCCUAAAGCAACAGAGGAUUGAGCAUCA` the bound/input enrichment was 2.53 ratio.
`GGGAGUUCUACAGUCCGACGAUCAAAUCUACUUCAUGCCUUGGACUCCGUACCGAACAGACACUCUAAUCGAGUACUCCUCCUUGGAUGACUUUCAAAAUGCCCGUCAAACCAUCACCUACAAGCUGCCGCACCGGGUGGAUGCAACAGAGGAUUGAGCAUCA` gave a bound/input enrichment of 0.346 ratio.
`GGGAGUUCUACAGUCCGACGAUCUUCAGGCUCAACUGACUGUUUCACAGCAUUCCUUACACAGCUAUUUAACGAGUACAAGUGGAGUGAAUUUUCAGGAUACGUCUAGGCACUCAGCGUUAUCCUGCAGUCCAGUUGGAGAUGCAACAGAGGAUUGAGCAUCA` has a bound/input enrichment of 0.211 ratio.
`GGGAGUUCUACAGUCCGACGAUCCAGCAGAUUCUCUCAUAGGGAGAGCUGCACACAUUGCUGUUCUUGAUUCAGAAAUAUUUUUAGAAAAAUUCUUCCUUGUUGCUGCCCUGAAGUACUUUCAGUAGAGAAGAGCAUCGUAAGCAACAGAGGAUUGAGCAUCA` gave a bound/input enrichment of 0.45 ratio.
`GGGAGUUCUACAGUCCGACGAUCUAAUUCAAUGGUUGAAGGCUCAGAACUCAAAAAAGUUCGGUCCAACUCCAGAAUUUACCACAGGUAUUUUCUUUUGGACGCAGACAUGCAAUCUCUGCGGUGGGAACCAUCAAAGAAGGACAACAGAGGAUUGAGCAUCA` gave a bound/input enrichment of 0.122 ratio.
`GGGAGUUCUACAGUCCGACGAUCUGCAGCCUUCCUCCUGGGGCGGCCUGGGAUCUGUAAGGUUGAUGACGAAUGUAUUAUAUCUAGUUGAGAUUAAUAUUUUUUAUUAGCCUGUGAAUGAAGAUGGCAUCUCCCACAUUAAAACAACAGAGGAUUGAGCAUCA` gave a bound/input enrichment of 0.223 ratio.

Other studies, line by line
With `PhoQ, residues 284 288 289 292 302 303 SIHLQL` the fold induction was 21 (PhoP, residues 12 14 15 18 19 SGWQI (Escherichia coli, UniProt P23836); Sort-seq, item: YFP reporter; E. coli; PhoQ-PhoP variant library, together with: 10 µM Mg2+; baseline: high Mg2+ state, higher = stronger signaling).

A few entries again (series 2):
`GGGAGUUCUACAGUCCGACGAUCCCUGUGCUACACAUCGUAUGUACCGAAUCGGGUUUUUUUGGUUUUUUUGGGUUUUUUUGGAAAGUAUUAUGUUACGCCGUUCGGAUCUGCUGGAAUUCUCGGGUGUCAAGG` has a log2 enrichment of 0.772.
`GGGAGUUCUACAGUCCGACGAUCGCAGGAAGUAAAAACAAAUGGAAAUGCUUCGGAUAGUGGCAGGGGUGGGGGUUGCUUAGGAAAGGGUGGGAUGGGAGUGGGUAAAGAGUUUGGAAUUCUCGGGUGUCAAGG` gave a log2 enrichment of -0.339.
The log2 enrichment of `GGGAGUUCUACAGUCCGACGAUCAAGUCGCGUGUCUAGGUGAGUCGCGGUGGGUCCUCGCUUGCAGUUCAGCGACCACGGUGGGUACCGUUUUUGCGAGGAUUGUUUGUCCCCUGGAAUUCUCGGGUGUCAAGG` is reported as 0.356.
